Published values collected from several papers.
Protocols differ between the studies behind these lines. Several values in a cell are separate wells, animals, samples, runs or records. ± gives the spread as reported.

Compound	assay	test system	setting	scale	endpoint	result
CC(C)NCC(O)COc1cccc2ccccc12 (stereo not drawn)		male Hartley guinea pig, anaesthetized	intravenous infusion, 0.3 mg/kg, 10 min infusion	baseline: baseline	QTc change	-1.6 ± 1.2%
O=C(CCCCCCC(=O)Nc1ccccc1)NO		human patients, serum	oral, 1700 mg once daily		AUC(0-8 h)	21.2 µM·h
COc1cccc2c1C(=O)c1c(O)c3c(c(O)c1C2=O)C[C@@](O)(C(=O)CO)C[C@@H]3O[C@H]1C[C@H](N)[C@H](O)[C@H](C)O1		mouse, E0771 tumour-bearing, tumor	intravenous, 92 µmol/kg		Cmax	21.4 µM
CCCSc1ccc2nc(NC(=O)OC)[nH]c2c1		PBS	24 h, pH 7.4, room temperature		thermodynamic solubility	< 1 µg/mL
CS(=O)(=O)OC[C@H](O)[C@@H](O)COS(C)(=O)=O		Wistar rat, female, red blood cells	intraperitoneal, 500 mg/kg, 1 h		concentration in red blood cells	158 µM and 204 µM and 741 µM
Cn1c(-c2ccc(C(N)=O)cc2F)nnc1C(C)(C)Oc1c(F)cc(Cl)cc1F		healthy young Japanese subjects, plasma	oral, 50 mg once daily, day 18, 14 days dosing		half-life mean	1490 min
CC(C)(C)NC(=O)[C@@H]1C[C@@H]2CCCC[C@@H]2CN1C[C@@H](O)[C@H](Cc1ccccc1)NC(=O)[C@H](CC(N)=O)NC(=O)c1ccc2ccccc2n1	shake-flask	polysorbate 80	37 °C		thermodynamic solubility	48.9 ± 2.15 mg/g
O=C(O)[C@H](c1ccccc1Cl)N1CCc2sccc2C1	HPLC-MS/MS	feline citrate plasma	24 h, -20 °C, storage stability		deviation from nominal	10%
CC[C@H](C)CCCCC(=O)N[C@@H](CCN)C(=O)N[C@H](C(=O)N[C@@H](CCN)C(=O)N[C@H]1CCNC(=O)[C@H]([C@@H](C)O)NC(=O)[C@H](CCN)NC(=O)[C@H](CCN)NC(=O)[C@H](CC(C)C)NC(=O)[C@@H](Cc2ccccc2)NC(=O)[C@H](CCN)NC1=O)[C@@H](C)O	UPLC-MS/MS	intensive care patients Non-AKI, plasma	iv, dose not given, 6 h post-dose, steady state, polymyxin B dosing		mid-interval concentration	2500 ± 800 ng/mL
C[C@]12CC[C@@H]3c4ccc(O)cc4CC[C@H]3[C@@H]1C[C@@H](O)[C@@H]2O	GC-MS	breast cancer women on NSAI, serum	vaginal, 0.03 mg daily, 4 h, day 28		maximum serum concentration	0.0377 ng/mL
CCOc1nc2cccc(C(=O)OC(C)OC(=O)OC3CCCCC3)c2n1Cc1ccc(-c2ccccc2-c2nnn[nH]2)cc1 (stereo not drawn)	shake-flask	polysorbate 80	37 °C		thermodynamic solubility	26.3 ± 0.54 mg/g
O=C1N=C(N2CCOCC2)CN1c1ccc(Cl)cc1		beagle dog, both sexes, plasma	oral, 30 mg/kg, tablets, fasted, day 0		Vz/F	0.556 L/kg
CCCCCCCCC/C=C/C(=O)CCc1ccc(O)c(OC)c1		rat, small intestine site 4 contents	oral, dose not given, 4 h, β-glucuronidase treated	baseline: ingested amount	recovery	0.09%
OCCN(CCO)c1nc(N2CCCCC2)c2nc(N(CCO)CCO)nc(N3CCCCC3)c2n1	shake-flask	PEG400	37 °C		thermodynamic solubility	16.9 ± 0.8 mg/g
O=C1CCc2cc(OC[C@H](O)CN3CCN(c4ccc(C(F)(F)F)cc4)CC3)ccc2N1		human, plasma	intravenous, 50 mg, multiple doses, once daily, steady state		clearance	200 mL/min
COc1cc(F)c(F)c(Nc2ccc(I)cc2F)c1NS(=O)(=O)C1(C[C@H](O)CO)CC1		human patients, plasma	oral, dose not given, cycle 1 day 15, with: copanlisib		AUC(0-8 h)	4920 ng·h/mL
O=c1c(-c2ccc(O)cc2)coc2cc(O)cc(O)c12	mass spectrometry	Caco-2	40 µM, 6 h		Papp A→B	11.9 ×10⁻⁶ cm/s
CN[C@H](CC(C)C)C(=O)N[C@H]1C(=O)N[C@@H](CC(N)=O)C(=O)N[C@H]2C(=O)N[C@H]3C(=O)N[C@H](C(=O)N[C@H](C(=O)O)c4cc(O)cc(O)c4-c4cc3ccc4O)[C@H](O)c3ccc(c(Cl)c3)Oc3cc2cc(c3O[C@@H]2O[C@H](CO)[C@@H](O)[C@H](O)[C@H]2O[C@H]2C[C@](C)(N)[C@H](O)[C@H](C)O2)Oc2ccc(cc2Cl)[C@H]1O		pig, all compartments	intravenous infusion, 1000 mg, infusion 100 min, with: 2 µg/mL		time to concentration	≤ 15 min

Some of these lines once more:
Compound	assay	test system	setting	scale	endpoint	result
Cn1c(-c2ccc(C(N)=O)cc2F)nnc1C(C)(C)Oc1c(F)cc(Cl)cc1F		healthy young Japanese subjects, plasma	oral, 50 mg once daily, day 18, 14 days dosing		half-life mean	1490 min
CC(C)(C)NC(=O)[C@@H]1C[C@@H]2CCCC[C@@H]2CN1C[C@@H](O)[C@H](Cc1ccccc1)NC(=O)[C@H](CC(N)=O)NC(=O)c1ccc2ccccc2n1	shake-flask	polysorbate 80	37 °C		thermodynamic solubility	48.9 ± 2.15 mg/g
